# Experimental data pooled from the literature.
# Every numbered part comes from another study and shows a few of its results, in no order.

# Set 1 — method: universal PBM; form: double-stranded DNA, one strand shown; medium: in vitro; concentration: not given; reading: higher = stronger binding
# Target: Sal-like protein 4, full length isoform B (SALL4, Homo sapiens, UniProt Q9UJQ4-2, residues 1-616)
# Notes: 8-mer, flanks averaged, mean of replicates
Oligonucleotide,E-score
GGTGGGCA,0.0456
AGGGACCG,-0.3
GTCCCAGA,-0.233
CATTTGCA,0.116
ACAACTCT,0.0784
ACTGTAAC,0.0499
CTACTTCA,-0.0421
ATTTGAGC,0.0754
AGCGTGCG,-0.204
ACGGACGG,-0.294
AAGACAGG,0.0138
CTTATATC,0.32
CACACGTC,0.00074
ATTTGCTC,0.0783
AGTCCCAT,0.0396
AATTACCA,0.271
ATTCGAAA,0.143
TGCTGGAA,-0.00952
GTGCGAAA,0.0384
TAGCGTAA,0.131
ACAAACCA,0.0117
GTAACAGA,0.106
AGGTGCAA,-0.00863
CGGATAAC,-0.122
AGGAGATC,-0.162

# Set 2 — method: competition protein-binding microarray; form: double-stranded DNA, one strand shown; medium: in vitro; concentration: 2 µM; added: Pho4 competitor, 0.05 µM; reading: higher = stronger binding
# Target: Centromere-binding protein 1, full length, His-tagged (CBF1, Saccharomyces cerevisiae, UniProt P17106, residues 1-351)
# UniProt P17106, sequence (whole entry, looked up): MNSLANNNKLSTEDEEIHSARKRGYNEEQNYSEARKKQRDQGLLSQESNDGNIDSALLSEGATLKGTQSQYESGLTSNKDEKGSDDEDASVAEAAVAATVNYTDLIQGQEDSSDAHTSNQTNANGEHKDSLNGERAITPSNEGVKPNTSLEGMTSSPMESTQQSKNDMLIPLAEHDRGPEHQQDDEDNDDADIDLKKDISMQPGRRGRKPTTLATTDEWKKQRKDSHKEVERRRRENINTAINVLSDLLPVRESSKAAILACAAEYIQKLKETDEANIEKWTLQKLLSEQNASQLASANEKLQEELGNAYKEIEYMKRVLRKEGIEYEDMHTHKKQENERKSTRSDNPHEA
# Notes: whole 60-bp probe, lowest competitor level
Oligonucleotide,fluorescence intensity
AGGAGAAAATCCGGCCACGATTTAACGGTTGTTGCTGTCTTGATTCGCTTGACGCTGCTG,68.7 a.u.
AAAGCGGTAATTTTTCACGTGTACTCACATATCTATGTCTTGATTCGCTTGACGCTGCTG,1100 a.u.
TTAAATCGATTGGATCAGGTGAGGAAGTACTCAGTGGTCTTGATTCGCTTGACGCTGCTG,248 a.u.
AAATTACTAAGTTGTATGGTGGGTGACGCCGTATGAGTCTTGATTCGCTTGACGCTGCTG,63.7 a.u.
TGCGCAACAACTTGGCTTGTGGGTGTATGTCTAGAAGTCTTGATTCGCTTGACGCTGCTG,57.8 a.u.
CGGGGTTAAGTTTGTATCGTGGGTGGCTTGCAGCAGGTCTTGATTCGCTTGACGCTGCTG,71 a.u.
GGCCGGGGCATGTTTCACGGGAAGTTCTGTGGCAGGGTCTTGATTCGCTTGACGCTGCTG,68.1 a.u.
GTCTTGTCTCATTGTCACGTTACTTTCCCCACTTCAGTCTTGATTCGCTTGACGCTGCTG,778 a.u.
CTTCTGTAAATTTTTCACGTGGCATGAAGCGCCCCGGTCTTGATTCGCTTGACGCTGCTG,696 a.u.
CTAACGAAGGTTTGCCTGGTGGGTGACAAGCCAAGTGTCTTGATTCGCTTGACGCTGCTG,65.5 a.u.
ATTTCTTCTGTTTCACACGTTGTGCTTGCCAGGAATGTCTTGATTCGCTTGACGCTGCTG,107 a.u.
CTTCTGTAAATTTTTCACGTGTGGTGAAGCGCCCCGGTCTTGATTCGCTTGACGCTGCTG,585 a.u.
CTAACGAAGGTTTGATTAGTGGGTGACAAGCCAAGTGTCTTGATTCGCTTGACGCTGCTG,71.8 a.u.
AAATTACTAAGTTGACGCGTGGGTGACGCCGTATGAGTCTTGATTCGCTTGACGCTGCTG,69.6 a.u.
TGCGCAACAACTTTTCACGTGATTTTATGTCTAGAAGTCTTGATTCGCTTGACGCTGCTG,3840 a.u.
CCTTATGTTATATGGCAGGTGAAATTGTGGGGCTACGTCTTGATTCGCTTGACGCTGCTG,79.8 a.u.
CTTCTGTAAATTTGAACAGTGGGTGGACGCGCCCCGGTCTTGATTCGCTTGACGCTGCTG,67.3 a.u.
CATACCCAACCTTGGATTGTGGGTGAAGATATTTGTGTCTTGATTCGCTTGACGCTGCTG,68.2 a.u.
AATATCCTCAACCTACACGTCTTCACCATCGGCACCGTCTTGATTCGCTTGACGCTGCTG,76.8 a.u.
CTTGCAAAAAGAAAAGGCGTGGCCGTAGTCTTCGCTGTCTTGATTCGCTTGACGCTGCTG,72.6 a.u.
AAATTACCGCCTTGACTCGTGAAACTGGATAATTCGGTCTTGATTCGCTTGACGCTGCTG,79.2 a.u.
ATTTGAACACCCCGTCACCTGAGTTAGGTAATTCATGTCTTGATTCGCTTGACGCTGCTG,137 a.u.
TGGTTGGCATCTTATCCCGTGGTGAATCCATTACCAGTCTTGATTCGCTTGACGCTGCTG,138 a.u.
TCTACAGGAGTTCTGCATGTGCGTAATTCAAAGCCTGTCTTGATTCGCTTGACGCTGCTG,92.8 a.u.
GCCATCTGTAATCAACATGTGAACTGAATGAAGCCGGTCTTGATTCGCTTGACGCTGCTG,223 a.u.

# Set 3 — method: protein binding microarray; form: double-stranded DNA, one strand shown; medium: in vitro; concentration: not given; reference: not given; reading: higher = stronger binding
# Target: Histone acetyltransferase KAT6A, winged helix 2, GST fusion (KAT6A, Homo sapiens, UniProt Q92794, residues 85-181)
# Notes: 8-mer, flanks averaged, mean of 2 arrays, mostly near background
# Residues (chain): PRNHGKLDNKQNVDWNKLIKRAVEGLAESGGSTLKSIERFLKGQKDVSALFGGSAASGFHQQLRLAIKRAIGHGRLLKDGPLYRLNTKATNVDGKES
Oligonucleotide,E-score
CGTCGTTC,0.0344
CCAAAGCC,-0.0858
CTGACGCC,-0.128
AAATGGCG,-0.0762
ACGTGCAA,-0.176
CTGATAAC,-0.00381
CTGTCCCC,-0.0207
AAAAATCG,0.0495
ATCCTACA,-0.0426
GTAGCTTA,0.0328
CCTAACCG,-0.131
AGGACTCA,-0.223
CTCGGCGC,0.103
TGTTATAA,0.089
GTCCGACA,0.036
AGTGAACG,-0.0296
AACGATCC,-0.0973
AACAAACC,0.0812
GGGTCGAA,0.133
CTCGACTA,-0.0266
ACACTTGG,-0.0682
AAAAAAGT,0.0526
TAGGAACA,-0.236
ACAATCGC,0.116
AATGCTAA,0.0644

# Set 4 — method: RNA Bind-n-Seq; form: RNA; medium: in vitro; concentration: 200 nM; notes: whole 134-nt RNA, ends assumed; added: 150 mM KCl; reference: input library; reading: higher = stronger binding
# Target: Fragile X messenger ribonucleoprotein 1, C-terminal low-complexity region (Fmr1, Mus musculus, UniProt P35922)
Oligonucleotide,log2 enrichment
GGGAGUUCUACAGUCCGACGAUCACCAUGCAGGUGGGCAUCUUUGGGAAGUGGGGCAAGGGGGGGAUAGGGAGGGGGGUAACACUUUGGGAACAGGUGGUCCCAGGUCGUCUCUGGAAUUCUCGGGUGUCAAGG,0.801
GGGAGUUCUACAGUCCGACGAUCACCAUGCAGGUGGGCAUCGUUGGGAAGUGGGGCAAGGGGGGGAUAGGGAGGGGGGUAACACUUUGGGAACAGGUGGUCCCAGGUCGUUUCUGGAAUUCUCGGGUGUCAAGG,0.754
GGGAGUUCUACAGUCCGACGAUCAAGUCCUGUGCUACACAUCGUAUGUACCGAAUCGGGGUGGGGUGGGGUUUUUGGGGAAAGUAUUAUGUUACGCCGUUCGGAUCUGCACUUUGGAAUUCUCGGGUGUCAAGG,1.3
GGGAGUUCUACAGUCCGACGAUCGUCCUGUGCUACACAUCGUAUGUACCGAAUCGGGGAAAAAAAGGGGUUUGGGGAGGGGAAAGUAUUAUGUUACGCCGUUCGGAUCUGCACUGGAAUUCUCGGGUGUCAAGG,0.501
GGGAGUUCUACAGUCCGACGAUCUCCUGUGCUACACAUCGUAUGUACCGAAUCGGGCCCCCCGGGCCCCCCGGCCCCCCGGGGAAAGUAUUAUGUUACGCCGUUCGGAUCUGCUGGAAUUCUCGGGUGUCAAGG,-0.158
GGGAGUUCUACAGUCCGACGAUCGCAGGAAGUAAAAACAAAUGGAAAUGCUUCGGAUAGUGGCAGUGGUGGGGGUUGCUAAGGAAAGGGUGGGAUGGGAGUGGGUAAAGAGUUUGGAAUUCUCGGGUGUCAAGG,-0.132
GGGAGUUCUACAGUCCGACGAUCUCAAGUCCUGUGCUACACAUCGUAUGUACCGAAUCGGUUUUUGGAGGAAAAAGGAAAGUAUUAUGUUACGCCGUUCGGAUCUGCACUUCCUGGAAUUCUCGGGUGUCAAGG,-0.602
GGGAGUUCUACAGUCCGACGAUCGUCCUGUGCUACACAUCGUAUGUACCGAAUCGGGAAAAAAAGGGAAAAAAAGGGAGGGAAAGUAUUAUGUUACGCCGUUCGGAUCUGCACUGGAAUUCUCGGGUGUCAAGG,0.127
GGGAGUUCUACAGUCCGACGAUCCACAGACAACACGCACCCACACAGACACAGAGGGAAGGGGUUGGGAUGGGGACAGGGUGCACAGCAGGGGGGGGUAGGACCCCAGCCCCUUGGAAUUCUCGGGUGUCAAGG,1.22
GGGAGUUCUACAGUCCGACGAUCUCAAGUCCUGUGCUACACAUCGUAUGUACCGAAUCGGGGCCGGCCGGGGCCGGGGAAAGUAUUAUGUUACGCCGUUCGGAUCUGCACUUCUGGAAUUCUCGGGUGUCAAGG,-0.367

# For quick reference, copied from above (set 3):
Oligonucleotide,E-score
CTCGACTA,-0.0266
AACAAACC,0.0812
ACGTGCAA,-0.176
AAAAAAGT,0.0526
CTGTCCCC,-0.0207
TGTTATAA,0.089
CTCGGCGC,0.103
AGGACTCA,-0.223
AACGATCC,-0.0973
